Published values of several laboratories.
A part holds a random share of what one study measured.

Study 1 — method: RNA Bind-n-Seq; form: RNA; sample: in vitro; concentration: 1 µM; notes: whole 134-nt RNA, ends assumed; added: 150 mM KCl; reference: input library; direction: higher = stronger binding
Target: Ras GTPase-activating protein-binding protein 1, C-terminal RGG region (G3BP1, Homo sapiens, UniProt Q13283)
Chain of UniProt Q13283 (whole entry, looked up): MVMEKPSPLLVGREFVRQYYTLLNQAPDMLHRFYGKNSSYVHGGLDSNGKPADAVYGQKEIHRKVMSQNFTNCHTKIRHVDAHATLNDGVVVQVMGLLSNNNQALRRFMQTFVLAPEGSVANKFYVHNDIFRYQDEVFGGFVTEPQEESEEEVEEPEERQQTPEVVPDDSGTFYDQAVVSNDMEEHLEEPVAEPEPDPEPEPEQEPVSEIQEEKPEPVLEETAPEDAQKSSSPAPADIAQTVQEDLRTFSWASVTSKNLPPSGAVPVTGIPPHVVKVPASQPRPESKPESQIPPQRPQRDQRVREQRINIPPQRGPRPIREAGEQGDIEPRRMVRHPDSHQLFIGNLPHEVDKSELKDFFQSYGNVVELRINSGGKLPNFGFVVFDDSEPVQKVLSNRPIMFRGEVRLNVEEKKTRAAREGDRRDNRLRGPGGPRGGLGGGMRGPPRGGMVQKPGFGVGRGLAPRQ
With `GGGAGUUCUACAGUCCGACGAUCUCAAGUCCUGUGCUACACAUCGUAUGUACCGAAUCGGAAAGGAGGAAAAAAAGGAAAGUAUUAUGUUACGCCGUUCGGAUCUGCACUUCCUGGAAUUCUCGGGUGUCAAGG` the log2 enrichment was -1.44.
The log2 enrichment of `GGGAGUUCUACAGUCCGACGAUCCCUGUGCUACACAUCGUAUGUACCGAAUCGGGGAAAAAAAGGGAAAAAAAGGAAAAAAAGGAAAGUAUUAUGUUACGCCGUUCGGAUCUGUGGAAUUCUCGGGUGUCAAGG` is reported as -1.7.
`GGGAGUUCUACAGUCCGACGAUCAAGUCCUGUGCUACACAUCGUAUGUACCGAAUCGGCCCCGGGCCCCGGGGCCCCGGGAAAGUAUUAUGUUACGCCGUUCGGAUCUGCACUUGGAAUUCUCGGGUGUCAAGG` gave a log2 enrichment of -2.3.
`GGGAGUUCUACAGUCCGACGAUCAGUCCUGUGCUACACAUCGUAUGUACCGAAUCGGGAAAAAGGGGAAAAAGGAAAAAGGAAAGUAUUAUGUUACGCCGUUCGGAUCUGCACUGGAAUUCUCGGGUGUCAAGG` has a log2 enrichment of -1.69.
`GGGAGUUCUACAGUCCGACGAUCACCAUGCAGGUGGGCAUCUUUGGGAAGUAGGGCAAGGGGGGGAUAGGGAGGGGGGUAACACUUUGGGAACAGGUGGUCCCAGGUCGUUUCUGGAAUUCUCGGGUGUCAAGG` has a log2 enrichment of -1.04.
`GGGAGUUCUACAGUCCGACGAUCCAAGUCCUGUGCUACACAUCGUAUGUACCGAAUCGGGUGGGUUUUUGGGUUUGGGAAAGUAUUAUGUUACGCCGUUCGGAUCUGCACUUCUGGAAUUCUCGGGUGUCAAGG` gave a log2 enrichment of 0.528.
With `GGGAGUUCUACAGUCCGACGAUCUCAAGUCCUGUGCUACACAUCGUAUGUACCGAAUCGGGAAAGGGUGGGAAAGGGAAAGUAUUAUGUUACGCCGUUCGGAUCUGCACUUCCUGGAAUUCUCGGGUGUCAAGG` the log2 enrichment was 1.68.

Study 2 — method: EMSA with sequencing; form: double-stranded DNA, one strand shown; sample: in vitro; concentration: 10 and 20 nM; reference: negative control set to 0; direction: higher = stronger binding
Target: Hepatocyte nuclear factor 3-alpha (Foxa1, Mus musculus, UniProt P35582, residues 1-468, full length assumed)
Notes: whole designed probe, mean of two concentrations, ends assumed
Target sequence (chain): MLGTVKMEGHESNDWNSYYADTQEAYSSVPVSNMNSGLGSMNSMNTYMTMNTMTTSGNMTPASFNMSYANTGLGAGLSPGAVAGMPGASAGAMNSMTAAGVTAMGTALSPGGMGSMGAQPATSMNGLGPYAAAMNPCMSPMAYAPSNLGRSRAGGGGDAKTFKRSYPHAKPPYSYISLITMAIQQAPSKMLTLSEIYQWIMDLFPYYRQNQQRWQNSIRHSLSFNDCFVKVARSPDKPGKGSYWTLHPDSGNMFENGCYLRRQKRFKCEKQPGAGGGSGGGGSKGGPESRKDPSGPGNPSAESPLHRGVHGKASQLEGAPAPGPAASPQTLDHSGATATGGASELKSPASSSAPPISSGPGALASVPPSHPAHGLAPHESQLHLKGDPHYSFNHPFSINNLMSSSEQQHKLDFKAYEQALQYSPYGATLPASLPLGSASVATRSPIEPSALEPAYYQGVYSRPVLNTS
`GTGAGCGGTGCCCATTGATGGGGAACAGATTACAAGGTCCTAGAAATTTAACATGCAAAATCTGGAGAAGATAGAGAGTAGGGTGGGGTTGTTGAAAGGTTTTTAGTAGGGTTTTCCAAAGTAATCTTAGTCAGGTTATTTTAAAAAATAAAATATAACTTGTTAGCTTGAAAGTAGGAGAAAAAAATTTAAAAAAATAAAATTTCAGTGTTAGATATATTTCACTGGGATCGTGGGGAC`: “normalised bound fraction” -0.0109 ratio.
`GTGAGCGGTGCCCATTGATGGGGAACGTGAGAAAGAAAATATAAAAGAGCTGAGTCAAATCTGGAGTCAATAAAGGTTTGTAGTTCTTCAAACAAGAACCCTTGCTCTGAATTCTAAAAGTAATTTACAGACATGCTGAAAAAATATTTCATTTTATGAAAGGTTCTGCACCAAAGCCTTTTACAAAAACAGTCTACAAAACCTACTAAACATCCTGTTTTTCACTGGGATCGTGGGGAC` — result for “normalised bound fraction”: 0.0356 ratio.
`GTGAGCGGTGCCCATTGATGGGGAACAACAATCTCCATGCACTAACCCTGGTTAATGTATTACTCTTTAACTCACACTCTAATCTAACTGTGACAGTGATGAGTTGTAAATTCTGCTTCATGTGTACATTTCCTGAGGTTGACATTAAAACGCCTCTGCAGACCCAGCAGAGTTCAGAGGTTTAAAGTTGAAATTTTCATATTCAAATAGAGTTGTCTGTTTCACTGGGATCGTGGGGAC` — result for “normalised bound fraction”: 0.119 ratio.
`GTGAGCGGTGCCCATTGATGGGGAACAGACAAAAAATGTAGTTGTTCAACAGCTCAGGGAAGAAAGCCTGAGCTTGCCACAGGAGGAGACAGGGCTAAGGCTGGGGAGTTGGGGGGAGTGTAATTTAAGTAGAGGACTGGGCAGAGCTACAAGAAATATTTAGCATTCCTGGCTTCCCACAAAGGGTAGGTCAAGGAGAGGGAATGAGCAGTTGGGATGTTTCACTGGGATCGTGGGGAC`: “normalised bound fraction” -0.0482 ratio.

Study 3 — method: RNA Bind-n-Seq; form: RNA; sample: in vitro; concentration: 365 nM; reference: no-protein control; direction: higher = stronger binding
Target: RNA binding protein fox-1 homolog 2, RRM domain, GST-SBP tag (RBFOX2, Homo sapiens, UniProt O43251-10, residues 100-194)
Notes: natural RNA segment, single round, ends assumed
Target sequence (chain): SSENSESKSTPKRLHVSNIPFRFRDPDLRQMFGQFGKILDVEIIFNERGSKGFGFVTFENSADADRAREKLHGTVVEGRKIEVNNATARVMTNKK
Under “RBNS enrichment (R)”, `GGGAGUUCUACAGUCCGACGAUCUUUGAUGUGUUUGUUUUUGUAAGAAAUAUGGAGGAACUGAAUUAUAAAGAAAAUAAAAUCCUUCUGUAAUAAUCAAAUAAAGUACUUCCCAUAAUCAAAACCAAAUUGGUUGGAAUUCUCGGGUGCCAA` is recorded as 1.14.
`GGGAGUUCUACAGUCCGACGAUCGAGGCGUGCCAGCAAGGCCAGGGAUGGCCGGAGGGCUGCGGGCUCCGCUAUUUGCAAAUGGAUGCCCCAGUGUCCGGGAUGUGUGGCCAGCUGCUGCAGGCAGGACUCCAUGGAAUUCUCGGGUGCCAA`: “RBNS enrichment (R)” 0.813.
`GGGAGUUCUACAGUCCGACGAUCGUCAGGCUGCUGAACCAGCCAACACAUGGGCUACUGCUGGGAAGCCUGGGCUGUUUUUUUUCUUAAACACAUUUUAUAUUACUGAACAACCAAAUCUACCCUCCACGGCCUGGAAUUCUCGGGUGCCAA` — result for “RBNS enrichment (R)”: 0.525.
`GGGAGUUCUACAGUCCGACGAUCGUGAAGCGUAAACAUUUAUCCUAUGUGGUUUCUCCUUAGACCUUGGGGUCAUGGUUCAGCAGAGGUUACAUAGGAGCAAAUGGUUCUCAAUUUUCCAGUUUGAUUGAAGUUGGAAUUCUCGGGUGCCAA`: “RBNS enrichment (R)” 0.326.
`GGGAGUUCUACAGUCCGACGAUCAGCAUACAUUGUAAAUUUGUAUUGUUUUAAAUACAGUAUUGUUUGCUGAAGCAUUGUAAUCAAGUUUGUAUUGUACAGUCAAAUGUAAGAAAAUAAAAAAAUUCUAGUCUUGGAAUUCUCGGGUGCCAA` — result for “RBNS enrichment (R)”: 1.3.
For `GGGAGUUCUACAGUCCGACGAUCGCAGUACUCUGCCAAUUUUAGAAGGUAAUUCCCAGAUCUGUUCUCAGCAAGAAAGUACCCUGUUGGAUAGUCCAGAUGAAGAAGUGGCUCACUAUAUAUCCCUGCAUAGAUGGAAUUCUCGGGUGCCAA`, “RBNS enrichment (R)” read 0.352.

Study 4 — method: competition protein-binding microarray; form: double-stranded DNA, one strand shown; sample: in vitro; concentration: 2 µM; added: Cbf1 competitor, 0.05 µM; direction: higher = stronger binding
Target: Phosphate system positive regulatory protein PHO4, full length, GST-tagged (PHO4, Saccharomyces cerevisiae, UniProt P07270, residues 1-312)
Notes: whole 60-bp probe, lowest competitor level
Target sequence (chain): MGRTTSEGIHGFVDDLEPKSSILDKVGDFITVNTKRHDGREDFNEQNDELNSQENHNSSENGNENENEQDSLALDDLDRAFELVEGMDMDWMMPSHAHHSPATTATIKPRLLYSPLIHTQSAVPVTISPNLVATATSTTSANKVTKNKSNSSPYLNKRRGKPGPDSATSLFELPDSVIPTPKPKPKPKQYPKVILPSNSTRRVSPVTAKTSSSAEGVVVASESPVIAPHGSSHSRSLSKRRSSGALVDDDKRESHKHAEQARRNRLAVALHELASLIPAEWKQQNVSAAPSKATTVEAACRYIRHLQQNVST
For `AAATTACTAAGTTGGTATGTGGGTGACGCCGTATGAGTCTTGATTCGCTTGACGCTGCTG`, the fluorescence intensity was 4760 a.u.
For `TGGTCGAGCTTTTTTCACATGCGGTGGGGAAGGCGGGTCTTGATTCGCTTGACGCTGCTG`, the fluorescence intensity was 6290 a.u.
With `GATTAGTTTCAGGTACATGTGTCAAATGAGGATAAAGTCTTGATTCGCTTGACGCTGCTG` the fluorescence intensity was 8460 a.u.
`CGGGGTTAAGTTTGGGGTGTGGGTGGCTTGCAGCAGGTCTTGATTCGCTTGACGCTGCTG` gave a fluorescence intensity of 5790 a.u.
`CGGATGCGCTGGCTGTACGTGACGGTGAAGTAGCTAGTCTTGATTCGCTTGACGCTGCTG` has a fluorescence intensity of 4680 a.u.
With `CTAACGAAGGTTTGTACAGTGGGTGACAAGCCAAGTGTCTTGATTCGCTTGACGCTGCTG` the fluorescence intensity was 3680 a.u.
`TACTTTAAAGATATACACGCACGGAAATGGTTCCAAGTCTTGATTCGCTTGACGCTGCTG` gave a fluorescence intensity of 7220 a.u.
For `AGTCGTTTGAGGGCAAACGTGTGAAAATCTCCGGAAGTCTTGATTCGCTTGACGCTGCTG`, the fluorescence intensity was 8300 a.u.
With `TAAGATTCGCTCAAACACATGCTCTTTCCAACGCTGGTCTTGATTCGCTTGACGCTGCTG` the fluorescence intensity was 10700 a.u.
`GTCTTGTCTCATTTTCACGTGCTATTCCCCACTTCAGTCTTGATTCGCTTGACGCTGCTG` has a fluorescence intensity of 14800 a.u.
`GACGACCGTACTTTGCACGTGGCCGCAGACACATTTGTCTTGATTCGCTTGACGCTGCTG` gave a fluorescence intensity of 17100 a.u.
`AAAGCGGTAATTTTTCACGTGTGATCAAATATCTATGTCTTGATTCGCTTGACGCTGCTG` gave a fluorescence intensity of 13300 a.u.
With `ATATATACTTTAGCATACGTGTGAATACGCCATATCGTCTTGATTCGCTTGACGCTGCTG` the fluorescence intensity was 6150 a.u.
`CATACCCAACCTTGGTGCGTGGGTGAAGATATTTGTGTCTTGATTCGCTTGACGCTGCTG` gave a fluorescence intensity of 10300 a.u.
`AAAGCGGTAATTTGGATCGTGGGTGCAGATATCTATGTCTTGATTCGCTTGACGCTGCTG` has a fluorescence intensity of 10100 a.u.
The fluorescence intensity of `GTGTTAAAGACTTGTAAAAGTTGCCGTAAAACACTAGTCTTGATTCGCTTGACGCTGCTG` is reported as 3950 a.u.
`CGGGGTTAAGTTTGTGAAGTGGGTGGCTTGCAGCAGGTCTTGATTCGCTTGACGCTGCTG` has a fluorescence intensity of 4780 a.u.

For quick reference, copied from above (study 4):
`GTCTTGTCTCATTTTCACGTGCTATTCCCCACTTCAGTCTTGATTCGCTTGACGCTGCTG` has a fluorescence intensity of 14800 a.u.
`GACGACCGTACTTTGCACGTGGCCGCAGACACATTTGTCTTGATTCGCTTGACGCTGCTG` gave a fluorescence intensity of 17100 a.u.
`AAAGCGGTAATTTTTCACGTGTGATCAAATATCTATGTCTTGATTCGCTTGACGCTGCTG` gave a fluorescence intensity of 13300 a.u.
